Assay results pooled from the literature.
Every numbered part comes from another study and shows a few of its results, in no order. Substitutions count along the parent as printed.

Set 1 — target: CCND1, cyclin fold, Cln2 fusion (human); technique: yeast growth competition, sequencing; matrix: yeast; notes: weak parent motif; reference: not given; direction: higher = stronger binding
Parent: AKAP12 docking peptide (human); GSPLKKLFTSTGL
| Change | normalised enrichment score |
| --- | --- |
| L13A | 0.446 |
| L7A | 0.315 |
| L4A | 0.865 |
| F8A | -0.0671 |
| F8L | 0.483 |
| P3A | 0.687 |
| K5A | -0.436 |

Set 2 — target: CRIPT, C-terminal peptide; technique: DHFR complementation, deep sequencing; matrix: yeast; reference: wild type; direction: higher = weaker binding
Notes: single substitutions, model-inferred values
Parent: ERBIN, PDZ domain 1 (human); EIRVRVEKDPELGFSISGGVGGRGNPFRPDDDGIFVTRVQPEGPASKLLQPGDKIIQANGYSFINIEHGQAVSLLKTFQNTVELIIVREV; partner TKNYKQTSV
| Change | binding free energy change [kcal/mol] |
| --- | --- |
| K8I | 1.28 |
| G19H | 1.32 |
| Q57C | 0.00557 |
| R88D | 0.295 |
| I86S | 0.482 |
| E89F | 0.0401 |
| P10W | -0.36 |
| S73W | 0.119 |
| S17V | 0.109 |
| V82H | 1.35 |
| L75G | 2.08 |
| D9V | 0.519 |
| V36E | 0.267 |
| G22C | 0.0203 |
| D30Y | 0.363 |
| E7P | 0.209 |

Set 3 — technique: protein binding microarray; form: double-stranded DNA, one strand shown; matrix: in vitro; tested at: not given; reference: not given; direction: higher = stronger binding
Target: Histone acetyltransferase KAT6A, both winged helices, GST fusion (KAT6A, Homo sapiens, UniProt Q92794, residues 1-181)
Notes: 8-mer, flanks averaged, mean of 2 arrays, mostly near background
Residues (chain): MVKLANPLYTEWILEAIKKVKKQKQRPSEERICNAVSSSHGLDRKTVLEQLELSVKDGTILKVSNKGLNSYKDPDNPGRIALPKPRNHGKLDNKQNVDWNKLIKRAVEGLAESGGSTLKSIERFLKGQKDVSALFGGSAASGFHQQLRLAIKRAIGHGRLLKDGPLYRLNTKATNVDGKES
| Oligonucleotide | E-score |
| --- | --- |
| ATATATGA | -0.0962 |
| ATAAGAGG | -0.159 |
| TGCGACAA | 0.00417 |
| ACCTACGC | 0.0746 |
| CTCTCCAA | -0.123 |
| ATATGCCC | -0.224 |
| CTCTAATC | -0.0487 |
| AACTCATT | -0.091 |
| CGTAATTC | 0.0464 |
| TAGACCCA | -0.278 |
| ACGCGAGG | 0.142 |

Set 4 — technique: RNA Bind-n-Seq; form: RNA; matrix: in vitro; tested at: 365 nM; reference: no-protein control; direction: higher = stronger binding
Target: RNA binding protein fox-1 homolog 2, RRM domain, GST-SBP tag (RBFOX2, Homo sapiens, UniProt O43251-10, residues 100-194)
Notes: natural RNA segment, single round, ends assumed
Shared flanks, not repeated: GGGAGUUCUACAGUCCGACGAUC … UGGAAUUCUCGGGUGCCAA
Construct (chain): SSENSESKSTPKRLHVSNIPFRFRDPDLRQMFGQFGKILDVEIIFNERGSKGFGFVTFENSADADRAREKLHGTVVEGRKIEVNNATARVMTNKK
| Oligonucleotide | RBNS enrichment (R) |
| --- | --- |
| GUGUGGCAUUUGUGUUCCAUUACCGGCCCCUUUAAGUAACGGCCUUCACAGCACCUUCCCAGUGGGUAGAAAGCCACACACCAGGAUGUGGGUCAACCAUGAAGAUGUGG | 0.324 |
| GAUCAUUUAAGUAAUAGUUAGUAAUCACGUAAAUACACCCGGACAGAAAUAUAAUGUCUGGAUCUACUUCAUUCUUACAUCAACAUUCACUUUAAAAUCUAUCGAAGCUC | 0.289 |
| AUGUUUUUGAGGGAUCCGGUCCCAAGACCGCUACUUAAGGAAGGGCUACAGACUUAAGGAACUCCACAGUCCUGGGAACCCUGUUCCGAGGGUACCCACUACUCAGGCCU | 0.185 |
| CCUGUGGCCGUGUGGAUGUCGGUAACAGUUGUAUAAAAUAAAUUCUAUUUAUCGCUAUUGUACCCAGGUUGGGCCUGGCUUUGUGUGAACCGUGGCCAGAUUGACCCCAG | 0.452 |
| GGAGGACUGUGAGGGCGGGGCCAGGCCUGUCAGCGUUCCCACCUGCCACUCCAGAGCUGGUGCCAGGGUCAGUCUGGAGAAGCCCCUGCAAUAAGCCCCUGCAUUGCCAA | 0.408 |
| GAAGAACCUGGCGAAGGAGAAGCUGGCAGUGUGAAGCGGAUGACGCCUGACAUUUUACGGGAUCAAAGUGGGUCUGUGGCAUUGCUGCUUCGUGAAUGUGUGUGGACUCU | 4.1 |
| CUGUCUUGGAUACCUAUUUAAAUGUGUGUUCUGUUUUGUUUUUUAACGAUUUUUAAAUAACGUCUGUGCCUCCACUGGUUGAGGGUGGAACCUCCAGGCAGGAACCGGCU | 1.37 |
| GGUGGAUUUUCGUUGUCCGUGGAAGAACACAUGGAUCUCUCUGGCUUUCUCACCCAAGUUGGCCACUUACGCUAAUCCUGGAAGUAUGAUCACUUUUGAACCUGCCCCUU | 0.277 |
